# Experimental data collected from several papers.
# By UniProt entry, the sequences of proteins in these tests, tags left out.
# UniProt P9WPP7, whole entry: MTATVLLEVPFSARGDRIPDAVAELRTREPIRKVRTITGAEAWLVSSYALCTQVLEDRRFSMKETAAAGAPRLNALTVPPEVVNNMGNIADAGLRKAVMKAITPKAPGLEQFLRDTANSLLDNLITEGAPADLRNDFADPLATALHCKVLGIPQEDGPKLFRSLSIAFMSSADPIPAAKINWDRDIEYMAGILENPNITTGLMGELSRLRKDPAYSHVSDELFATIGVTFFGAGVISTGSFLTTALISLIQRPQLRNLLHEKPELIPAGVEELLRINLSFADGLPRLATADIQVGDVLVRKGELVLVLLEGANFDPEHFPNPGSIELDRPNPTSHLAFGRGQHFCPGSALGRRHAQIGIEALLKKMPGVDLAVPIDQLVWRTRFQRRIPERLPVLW
# UniProt P08172, whole entry: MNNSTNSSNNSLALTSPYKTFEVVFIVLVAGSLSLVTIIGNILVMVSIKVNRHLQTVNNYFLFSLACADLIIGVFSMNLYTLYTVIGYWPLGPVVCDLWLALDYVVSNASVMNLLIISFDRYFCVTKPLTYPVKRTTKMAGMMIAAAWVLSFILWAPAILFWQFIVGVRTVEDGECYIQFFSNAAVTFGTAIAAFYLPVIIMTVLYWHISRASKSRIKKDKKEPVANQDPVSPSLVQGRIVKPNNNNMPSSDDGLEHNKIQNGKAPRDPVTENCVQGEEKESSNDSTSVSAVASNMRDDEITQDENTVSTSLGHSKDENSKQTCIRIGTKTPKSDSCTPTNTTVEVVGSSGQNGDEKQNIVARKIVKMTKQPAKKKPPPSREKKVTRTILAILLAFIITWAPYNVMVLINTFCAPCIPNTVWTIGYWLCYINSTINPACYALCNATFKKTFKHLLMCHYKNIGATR
# Compare with care: the assays were run in different laboratories. ± gives the spread as reported.
# cyp121: Mycocyclosin synthase (cyp121, Mycobacterium tuberculosis, UniProt P9WPP7)
SMILES,target or system,assay,test system,conditions,how to read,endpoint,value
CC(C)C(C(=O)N(Cc1ccc(C2CCCCC2)cc1)c1ccc(C(=O)O)cc1)N(C)S(=O)(=O)c1c(F)c(F)c(F)c(F)c1F (stereo not shown),,immunohistochemistry,"NSG mice, Pa03C xenograft, tumour","ip, 10 mg/kg, 15 days",,phospho-histone H3 level,decreased
NC1=NC2(CCCCC2)N(c2ccc(OCc3cn(CCCCOc4ccc5ccc(=O)oc5c4)nn3)cc2)C(N)=N1,Mycobacterium bovis BCG,,"resistant, thyA W133S",,,MIC50,1.6 µM
Nc1cc(S(=O)(=O)O)cc2cc(S(=O)(=O)O)cc(O)c12,Escherichia coli,"bacterial growth, broth microdilution",expressing OXA-48,"8 µg/mL, together with: ampicillin",MIC of ampicillin,MIC of ampicillin,512 µg/mL
C[C@@H]1CN(C)CCN1c1nc(-c2ccc(F)cc2)cs1,,tail suspension test,C57BL/6J male mice,"5 mg/kg daily, days 0, 1, 3, learned helplessness model",,immobility time,decreased
C[C@H](CS)C(=O)N[C@H](Cc1c[nH]c2ccccc12)C(=O)O,Klebsiella pneumoniae,,IMP-1 producing,"10 µM, together with: meropenem",,MIC of meropenem,8 µg/mL
NC[C@@H](NC[C@@H]1CCCN1C[C@@H](CO)NC[C@@H](NCCC12CC3CC(CC(C3)C1)C2)c1ccccc1)c1ccccc1,Acinetobacter baumannii,bacterial growth,,"8 µM, fold shift of IC50, together with: amikacin",,potentiation of amikacin,1.9 fold
O=S(=O)(O)c1ccc(-c2ccc(S(=O)(=O)O)cc2)cc1,Escherichia coli,"bacterial growth, broth microdilution",expressing OXA-48,"256 µg/mL, together with: ampicillin",MIC of ampicillin,MIC of ampicillin,32 µg/mL
CC(C)C[C@@H]1NC(=O)[C@H](CCC(=O)O)NC(=O)[C@@H]2CSSC[C@@H]3NC(=O)[C@H](C)NC(=O)[C@@H]4CCCN4C(=O)[C@H](CC(N)=O)NC(=O)[C@H](CSSC[C@H](NC(=O)[C@H](Cc4ccc(O)cc4)NC(=O)[C@H](CC(N)=O)NC(=O)[C@H](CO)NC(=O)[C@H](CO)NC(=O)CN4CCN(CC(=O)O)CCN(CC(=O)O)CCN(CC(=O)O)CC4)C(=O)N2)NC(=O)[C@H](CSSC[C@@H](C(=O)N[C@@H](Cc2ccccc2)C(=O)O)NC(=O)CNC(=O)[C@H]([C@@H](C)O)NC3=O)NC1=O [copper-64 labelled],T84,,,"1 h loading, pH 5.5, 37 °C",,64Cu efflux,no effect
COCCCn1nc(-c2ccc(CC(=O)Nc3cccc(F)c3)cc2)c2c(N)ncnc21,LC-2/ad (CCDC6-RET fusion),cell viability,,,,EC50,2.41 ± 0.16 µM
C[C@@H](O)[C@@H]1NC(=O)[C@@H]2CSCSC[C@@H](C(=O)N[C@H](CC(=O)N[C@@H](CCCNC(=N)N)C(=O)O)Cc3ccc(O)cc3)NC(=O)[C@H](CCC(N)=O)NC(=O)[C@H](Cc3ccc(O)c(I)c3)NC(=O)[C@H](CCCNC(=N)N)NC(=O)[C@H](CSSC[C@H](NC(=O)CN)C(=O)N2)NC(=O)[C@H](CCCNC(=N)N)NC(=O)[C@@H]2CCCN2C(=O)[C@H](CC(=O)O)NC1=O,N-type calcium channel,radioligand binding,,10 µM,,inhibition,58.4%
COc1ccc(S(=O)(=O)Nc2cccc(C(=O)NC3CCN(c4ncnc5[nH]cnc45)CC3)c2)cc1,A549-ACE2,,,2.469 µM,,viability,103%
Cc1ccc(-c2csc(NP(=O)(O)OCC3OC(n4cnc5c(=O)[nH]c(NC(=O)c6ccccc6)nc54)C4OC(C)(C)OC34)n2)cc1 (stereo not shown),MCF7,"cell growth, SRB",,,,IC50,32.2 ± 2.02 µM
COc1ccc(CN[C@@H]2CO[C@H](C(c3ccccc3)c3ccccc3)C[C@H]2O)cc1,"CHRM2 (Homo sapiens, UniProt P08172)",radioligand binding,,"10 µM, together with: [3H]QNB",,inhibition,23%
C=CC(=O)Nc1cc(-n2c(=O)ccc3cnc4ccc(-c5cn[nH]c5)cc4c32)ccc1C,Ramos,"western blot, refers to: eIF4E Ser209 phosphorylation",,1 µM,,eIF4E phosphorylation,decreased
O=S(=O)(O)c1ccc2c(c1)Cc1cc(S(=O)(=O)O)ccc1-2,Escherichia coli,"bacterial growth, broth microdilution",expressing OXA-48,"128 µg/mL, together with: ampicillin",MIC of ampicillin,MIC of ampicillin,64 µg/mL
CCc1nc(N)nc(N)c1C#CC(C)c1cc2c(c(-c3ccc(CC(=O)O)cc3)c1)OCO2 (stereo not shown),MCF-10A,"cytotoxicity, Alamar Blue",,four hours,,IC50,> 200 µg/mL
O=S(=O)(O)c1ccc2cc(S(=O)(=O)O)ccc2c1,Escherichia coli,"bacterial growth, broth microdilution",expressing OXA-48,"4 µg/mL, together with: ampicillin",MIC of ampicillin,MIC of ampicillin,256 µg/mL
CC(C)(c1ccc(-c2ccc(F)cc2)cc1)n1ccnc1,cyp121,binding,,,,Kd,8.9 ± 0.54 µM
CN1CC[C@]23c4c5ccc(O)c4O[C@H]2c2ncc(-c4ccc(Cl)cc4)cc2C[C@@]3(OCCCc2ccccc2)[C@H]1C5,,,"CD-1 mouse, chemotherapy-induced neuropathy","sc, 3.2 mg/kg, together with: vehicle ip, 5 min prior",,time to zero efficacy,3 days
Oc1ccc(-c2ccc(Cn3ccnc3)c3ccccc23)cc1,cyp121,binding,,,,Kd,1.1 ± 0.22 µM
COc1ccc2c(c1)c(CC(=O)NCCCCNC(=O)CCC(=O)OC1c3cc4c(cc3C(c3cc(OC)c(OC)c(OC)c3)C3C(=O)OCC13)OCO4)c(C)n2C(=O)c1ccc(Cl)cc1 (stereo not shown),various tumour and normal lines,inhibitor,,,,cell proliferation,inhibited
NC[C@@H](NC[C@@H]1CCCN1C[C@@H](CO)NC[C@@H](NCCc1ccc(Cl)c(Cl)c1)c1ccccc1)c1ccccc1,Acinetobacter baumannii,bacterial growth,,"8 µM, fold shift of IC50, together with: amikacin",,potentiation of amikacin,7.9 fold
C[C@@H](NC(=O)[C@@H](N)Cc1ccc(O)cc1)C(=O)NCC(=O)N[C@@H](Cc1ccccc1)C(N)=O,,"muscle contraction, inhibitor",mouse vas deferens,electrically stimulated,,IC50,0.00072 ± 0.0002 µM
O=C(O)c1ccc(-c2cccc(C(=O)O)c2)cc1,Escherichia coli,"bacterial growth, broth microdilution",expressing OXA-48,"16 µg/mL, together with: ampicillin",MIC of ampicillin,MIC of ampicillin,512 µg/mL
CCc1nc(N)nc(N)c1C#C[C@@H](C)c1cc(OC)cc(-c2ccncc2)c1,Staphylococcus aureus,broth microdilution,F98Y DHFR mutant,"18 h, 37 °C",,MIC,0.625 µg/mL
Nc1ccc2ccc(CCNCCCc3cccc(F)c3)cc2n1,mouse embryonic fibroblasts,"cytotoxicity, CellTiter-Glo",,72 h,,IC50,5.84 µM
NC[C@@H](NC[C@@H]1CCCN1C[C@@H](CO)NC[C@@H](NCCC1CC2CCC1C2)c1ccccc1)c1ccccc1 (stereo partly shown),Acinetobacter baumannii,bacterial growth,,"24 µM, fold shift of IC50, together with: amikacin",,potentiation of amikacin,4.6 fold
CO[C@H]1[C@H](O[C@H]([C@H]2O[C@@H](n3ccc(=O)[nH]c3=O)[C@H](O)[C@@H]2O)[C@H](NCCCNC(=O)[C@@H](NC(=O)[C@@H](NC(=O)N[C@H](C(=O)O)C(C)C)[C@@H]2CCNC(=N)N2)[C@@H](OC(=O)CCCCCCCCCCCCNC(=N)N)C(C)C)C(N)=O)O[C@H](CN)[C@H]1O,Candida albicans,alamar blue,18 M,,,MIC50,> 35 µg/mL
NC(=O)CC[C@H](NC(=O)[C@H](CCC(N)=O)NC(=O)[C@H](CC(N)=O)NC(=O)[C@H](CC(N)=O)NC(=O)CNC(=O)[C@H](Cc1ccccc1)NC(=O)Cc1ccc2ccccc2c1)C(=O)N[C@@H](CC(N)=O)C(=O)N[C@@H](Cc1ccc(OP(=O)(O)O)cc1)C(=O)O,HeLa,"cell viability, MTT",,48 h,,IC50,> 500 µM
CCCCCCCCCCCCNC(=O)N[C@H](C(=O)N[C@H]1/C=C/CCNC(=O)/C=C/[C@H](C)NC1=O)C(C)C,Mino bortezomib-resistant,cell viability,,,baseline: EC50 resistant over parental Mino,resistance index,2 ± 0.1
O=C(NC1CCN(c2ncnc3[nH]cnc23)CC1)c1cccc(NS(=O)(=O)c2ccc(Cl)cc2)c1,A549-ACE2,,,66.67 µM,,viability,85.1%
O=S(=O)(N[C@H]1CCC[C@@H](N2c3ccccc3CCc3ccccc32)[C@@H]1O)c1ccc(OC(F)(F)F)cc1,,,"mice, intracranial glioblastoma xenograft","oral, 100 mg/kg twice daily",baseline: vehicle,survival increase,~2 fold
CC(CCN[C@H](CN[C@H](CO)CN1CCC[C@H]1CN[C@H](CN)c1ccccc1)c1ccccc1)c1ccccc1 (stereo partly shown),Klebsiella pneumoniae,bacterial growth,,"16 µM, fold shift of IC50, together with: amikacin",,potentiation of amikacin,2.7 fold
Cc1ccc(-c2csc(NP(=O)(O)OCC3OC(n4c[n+](Cc5ccccc5)c5c(=O)[nH]c(NC(=O)c6ccccc6)nc54)C4OC(C)(C)OC34)n2)cc1 (stereo not shown),MCF7,"cell growth, SRB",,,,IC50,37 ± 0.58 µM
CO[C@H]1[C@H](O[C@H]([C@H]2O[C@@H](n3ccc(=O)[nH]c3=O)[C@H](O)[C@@H]2O)[C@H](NCCCNC(=O)[C@@H](NC(=O)[C@@H](NC(=O)N[C@H](C(=O)O)C(C)C)[C@@H]2CCNC(=N)N2)[C@@H](OC(=O)CCCCCCCCCCCCN(O)C(=N)N)C(C)C)C(N)=O)O[C@H](CN)[C@H]1O,Cryptococcus gattii,alamar blue,C17,,,MIC50,> 35 µg/mL
NC[C@@H](NC[C@@H]1CCCN1C[C@@H](CO)NC[C@@H](NCCc1ccc(-c2ccccc2)cc1)c1ccccc1)c1ccccc1,Acinetobacter baumannii,bacterial growth,,"8 µM, fold shift of IC50, together with: amikacin",,potentiation of amikacin,1.6 fold
CC1(C)OC2C(COP(=O)(O)Nc3nccs3)OC(n3cnc4c(=O)[nH]c(NC(=O)c5ccccc5)nc43)C2O1 (stereo not shown),Caco-2,"cell growth, SRB",,,,IC50,> 100 µM

# Excerpt of the above:
SMILES,target or system,assay,test system,conditions,how to read,endpoint,value
C[C@@H](NC(=O)[C@@H](N)Cc1ccc(O)cc1)C(=O)NCC(=O)N[C@@H](Cc1ccccc1)C(N)=O,,"muscle contraction, inhibitor",mouse vas deferens,electrically stimulated,,IC50,0.00072 ± 0.0002 µM
O=C(O)c1ccc(-c2cccc(C(=O)O)c2)cc1,Escherichia coli,"bacterial growth, broth microdilution",expressing OXA-48,"16 µg/mL, together with: ampicillin",MIC of ampicillin,MIC of ampicillin,512 µg/mL
CCc1nc(N)nc(N)c1C#C[C@@H](C)c1cc(OC)cc(-c2ccncc2)c1,Staphylococcus aureus,broth microdilution,F98Y DHFR mutant,"18 h, 37 °C",,MIC,0.625 µg/mL
Nc1ccc2ccc(CCNCCCc3cccc(F)c3)cc2n1,mouse embryonic fibroblasts,"cytotoxicity, CellTiter-Glo",,72 h,,IC50,5.84 µM
NC[C@@H](NC[C@@H]1CCCN1C[C@@H](CO)NC[C@@H](NCCC1CC2CCC1C2)c1ccccc1)c1ccccc1 (stereo partly shown),Acinetobacter baumannii,bacterial growth,,"24 µM, fold shift of IC50, together with: amikacin",,potentiation of amikacin,4.6 fold
